Results pooled from the literature.
Lines come from different studies, so protocols differ. ± marks the error that the study gave.

C[C@@H](O)[C@H](NC(=O)[C@H](CO)NC(=O)[C@H](CO)NC(=O)[C@@H](N)CCCCN)C(=O)N[C@@H](CCCNC(=N)N)C(=O)NCC(=O)N[C@@H](CCCNC(=N)N)C(=O)N[C@@H](CCCCN)C(=O)N[C@@H](CO)C(=O)N[C@@H](CO)C(=O)N[C@@H](CCCNC(=N)N)C(=O)N[C@@H](CCCNC(=N)N)C(=O)N[C@@H](CCCCN)C(=O)N[C@@H](CCCCN)C(=O)O
LPS effect on degranulation (LAD2; agonist; 10 µM, together with: Escherichia coli LPS 100 µg/mL, 5 min preincubation): no effect

O=C(O)CCC(NP(=O)(O)OCCC[C@@H](NC(=O)CCC(NC(=O)CCCCCNC(=O)CCCCCNC(=O)c1ccc([18F])cc1)C(=O)O)C(=O)O)C(=O)O (stereo partly drawn)
cell uptake (CWR22Rv1; 1 h): 2.28 ± 0.14%

CC(C)CC(O)(CC(C)C)c1cn(C(=O)N2CCCC2)nn1
SILAC ratio (mouse T-cells; N-terminal labeled proteins, N-terminal enrichment proteomics, refers to: S100A4; 1 nM, 6 h; reference: DMSO): 4.07 ± 0.3

C=C1C(=O)O[C@H]2[C@H]1CCC(C)=C1[C@H](OC(=O)c3cc(C(F)(F)F)cc(C(F)(F)F)c3)C[C@@](C)(O)[C@@H]12
CC50 (M9-ENL1 leukaemia cells; annexin V/7-AAD flow cytometry; 24 h, 5% human plasma): 7 µM

COc1cc(C)c(OC)c(OC)c1OC
GI50 (A-375; cell growth or viability, MTT; 72 h): > 250 µM

CC[C@H](C)[C@H](NC(=O)[C@H](Cc1ccccc1)NC(=O)[C@H](CC(=O)O)NC(=O)[C@H](CCCCN)NC(=O)[C@H](C)NC(=O)[C@H](CCCCN)NC(=O)[C@H](CC(N)=O)NC(=O)[C@H](CC(C)C)NC(=O)[C@H](Cc1c[nH]c2ccccc12)NC(=O)[C@H](CCC(=O)O)NC(=O)[C@H](CCCCN)NC(=O)[C@@H](NC(=O)CNC(=O)[C@H](C)N)[C@@H](C)O)C(=O)N[C@@H](CCCCN)C(=O)N[C@@H](CCC(=O)O)C(=O)N[C@@H](CCCCN)C(=O)NCC(=O)N1CCC[C@H]1C(=O)NCC(=O)N[C@@H](CCSC)C(=O)N[C@@H](CC(C)C)C(=O)N[C@@H](CO)C(=O)N[C@@H](C)C(=O)N[C@@H](C)C(=O)N[C@@H](C)C(=O)N[C@@H](CC(N)=O)C(=O)N[C@@H](C)C(=O)N[C@@H](C)C(=O)N[C@@H](CC(C)C)C(=O)N[C@@H](CC(N)=O)C(=O)O
EC50 (F11 cells; intracellular calcium, FLIPR; 0.1% BSA): > 100 µM

N=C(N)Nc1ccc(-c2nc3ccc(-c4ccc5nc(-c6ccc(NC(=N)N)cc6)[nH]c5c4)cc3[nH]2)cc1
NOVA-regulated splicing (sample A patient fibroblasts; concentration not given): no effect

CCCCCCCCCCCCN(CCCCCCCCCCCC)[C@H]1C=C[C@]2(O[C@H]([C@@H](CC)C(=O)[C@@H](C)[C@@H](O)[C@H](C)[C@@H]3O[C@@H]([C@@H](CC)C(=O)O)CC[C@@H]3C)[C@@H](C)C[C@H]2C)O[C@@]12CC[C@@](C)([C@H]1CC[C@](O)(CC)[C@H](C)O1)O2
selectivity ratio (HMLER CD24low/CD44high; cell viability, CellTiter-Blue; 72 h; reference: IC50 HMLER CD24high/CD44low over CD24low/CD44high): 5.2

CCCc1cc(OC)c2c(c1OC)OCO2
GI50 (A-375; cell growth or viability, MTT; 72 h): 167 µM

C=CCc1ccc(OC(=O)COC(=O)Cn2cnc3c2c(=O)n(C)c(=O)n3C)c(OC)c1
TNF-α reduction (RAW264.7; ELISA; 10 µM, together with: LPS; reference: LPS alone): 49%

CC(C)[C@]12O[C@H]1[C@@H]1O[C@]13[C@]1(O[C@H]1C[C@H]1c4c(C(=O)c5ccccc5)oc(OC(=O)c5ccccc5)c4CC[C@@]13C)[C@@H]2O
IC50 ratio (MV4-11; cell viability; 48 h; reference: compound over triptolide): 2.1

CC[C@@]1(O)C(=O)OCc2c1cc1n(c2=O)Cc2cc3cc(OC(=O)CCCC(=O)NCC(=O)N[C@@H](Cc4ccccc4)C(=O)N[C@@H](Cc4ccccc4)C(=O)N[C@@H](Cc4ccc(OP(=O)(O)O)cc4)C(=O)NCCSSCCNC(=O)CCC(=O)N[C@@H](CCC(=O)O)C(=O)N[C@@H](CCCNC(=N)N)C(=O)NCC(=O)N[C@@H](CC(=O)O)C(=O)O)ccc3nc2-1
penetration depth (HepG2 spheroids; confocal microscopy; 100 µM, 6 h): 100 µm

CC(C)=CCC/C(C)=C/C[P+](c1ccccc1)(c1ccccc1)c1ccccc1
GI50 (A-375; cell growth or viability, MTT; 72 h): 0.221 µM

CN1c2ccc(OC(=O)Nc3ccncc3)cc2C2(C)CCOC12 (stereo not drawn)
EV size distribution (donor cells; tunable resistive pulse sensing; 20 µM; reference: DMSO): no effect

CNC(=O)c1cc(Oc2ccc(NC(=O)c3ccc(-c4cccc(COC(=O)CCC(=O)OC5OC6OC7(C)CCC8C(C)CCC(C5C)C68OO7)c4)cn3)cc2)ccn1 (stereo not drawn)
G0/G1 phase cells (Huh-7; PI staining, flow cytometry; concentration not given, 24 h): 38%

C[C@@H](O)[C@H](NC(=O)[C@H](CCCCN)NC(=O)CCC(=O)O)C(=O)NCC(=O)N[C@@H](CC(=O)O)C(=O)N[C@@H](CCC(=O)O)C(=O)N[C@@H](CCCCN)C(=O)N[C@@H](CCCCN)C(=O)NCC(=O)NCC(=O)N[C@@H](Cc1ccc(O)cc1)C(=O)NCC(=O)N[C@@H](CCCNC(=N)N)C(=O)N[C@@H](CCCCN)C(=O)N[C@@H](CCCCN)C(=O)N[C@@H](CCCNC(=N)N)C(=O)N[C@@H](CCCNC(=N)N)C(=O)N[C@@H](CCC(N)=O)C(=O)N[C@@H](CCCNC(=N)N)C(=O)N[C@@H](CCCNC(=N)N)C(=O)N[C@@H](CCCNC(=N)N)C(N)=O
caspase-3 positive cells (Huh-7; apoptosis, flow cytometry; 40 µM, 16 h): 1.94%

COc1cc(C)cc2c1OCO2
GI50 (T47D; cell growth or viability; 72 h): > 250 µM

Cc1cc(C)c(-n2ccn(-c3c(C)cc(C)cc3C)c2=[Se])c(C)c1.[Cl][Ag]
resistance factor (A2780 ADR; MTT; reference: A2780 ADR over A2780): 0.8

CN1C(=O)C2(Cc3ccc(CC45SSC(CO)(C(=O)N4C)N(C)C5=O)cc3)SSC1(CO)C(=O)N2C (racemic)
mRNA level reduction (MCF7; qRT-PCR, refers to: VEGF; 200 nM, together with: deferoxamine 300 µM): > 50%

C[P+](c1ccccc1)(c1ccccc1)c1ccccc1
GI50 (T47D; cell growth or viability; 72 h): 6.99 µM

N=C(N)NCCC[C@H](N)C(=O)NCC(=O)N[C@@H](CC(=O)O)C(=O)O
cell perimeter (NIH 3T3 fibroblasts; peptide-functionalised PEG-glass; concentration not given, 4 h): 297 ± 116 µm

COC[C@@H](NC(C)=O)C(=O)NCc1ccc(-c2cccc(OC(F)(F)F)c2)cc1
use-dependent Na+ current (CAD; inhibitor; concentration not given): decreased

CCCCCCCCCCCCCCCC[P+](c1ccccc1)(c1ccccc1)c1ccccc1
GI50 (A-375; cell growth or viability, MTT; 72 h): 0.52 µM

CC/C=C\C/C=C\C/C=C\C/C=C\C/C=C\C/C=C\CCC(=O)Nc1ccn(C2OC(CO)C(O)C2(F)F)c(=O)n1 (stereo not drawn)
CC50 (TK-10; NCI60 screen): 74.9 µM

Excerpt of the above:
C[C@@H](O)[C@H](NC(=O)[C@H](CO)NC(=O)[C@H](CO)NC(=O)[C@@H](N)CCCCN)C(=O)N[C@@H](CCCNC(=N)N)C(=O)NCC(=O)N[C@@H](CCCNC(=N)N)C(=O)N[C@@H](CCCCN)C(=O)N[C@@H](CO)C(=O)N[C@@H](CO)C(=O)N[C@@H](CCCNC(=N)N)C(=O)N[C@@H](CCCNC(=N)N)C(=O)N[C@@H](CCCCN)C(=O)N[C@@H](CCCCN)C(=O)O
LPS effect on degranulation (LAD2; agonist; 10 µM, together with: Escherichia coli LPS 100 µg/mL, 5 min preincubation): no effect

O=C(O)CCC(NP(=O)(O)OCCC[C@@H](NC(=O)CCC(NC(=O)CCCCCNC(=O)CCCCCNC(=O)c1ccc([18F])cc1)C(=O)O)C(=O)O)C(=O)O (stereo partly drawn)
cell uptake (CWR22Rv1; 1 h): 2.28 ± 0.14%

CC(C)CC(O)(CC(C)C)c1cn(C(=O)N2CCCC2)nn1
SILAC ratio (mouse T-cells; N-terminal labeled proteins, N-terminal enrichment proteomics, refers to: S100A4; 1 nM, 6 h; reference: DMSO): 4.07 ± 0.3

C=C1C(=O)O[C@H]2[C@H]1CCC(C)=C1[C@H](OC(=O)c3cc(C(F)(F)F)cc(C(F)(F)F)c3)C[C@@](C)(O)[C@@H]12
CC50 (M9-ENL1 leukaemia cells; annexin V/7-AAD flow cytometry; 24 h, 5% human plasma): 7 µM
